Results of several laboratories.
Every numbered part comes from another study and shows a few of its results, in no order. Positions count from the first letter of the parent shown.

Block 1
Target: CCNE1, cyclin fold, Cln2 fusion (human)
Technique: yeast growth competition, sequencing
Matrix: yeast
Setting: weak parent motif
Relative to: not given
Direction: higher = stronger binding
Starting sequence: SLBP docking peptide (human); ARYKRKLLINDFG
Change	normalised enrichment score
R5G	-0.0136
F12T	-0.405
D11V	1.04
K6P	0.0915
L8P	0.597
Y3T	0.384
L8S	-0.178
L7G	0.353
N10I	1.33
I9A	0.202
N10D	0.799
D11L	1.66
L7Q	0.146
L8E	0.844
K6Y	0.786

Block 2
Target: ABI1, truncated, D143A, DHFR fusion (Arabidopsis thaliana)
Technique: DHFR PCA, deep sequencing
Matrix: yeast
Setting: methotrexate growth selection, single substitutions
Added: (+)-ABA 17 µM
Relative to: wild-type fitted maximum
Direction: higher = stronger binding
Starting sequence: PYL1, truncated, DHFR fusion (Arabidopsis thaliana); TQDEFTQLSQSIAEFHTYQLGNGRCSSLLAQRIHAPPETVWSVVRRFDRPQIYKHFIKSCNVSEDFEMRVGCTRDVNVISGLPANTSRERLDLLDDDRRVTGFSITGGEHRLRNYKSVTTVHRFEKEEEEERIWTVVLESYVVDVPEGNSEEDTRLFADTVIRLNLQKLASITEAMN
Change	relative binding score [%]
I52C	80.3
L8M	71.8
H55I	87.2
Q2V	87.6
A175T	89.2
E151I	87.4
G107S	54.8
E109N	97.4
P37I	65.4
M68E	37.7
R113A	88.8
R132E	111
L91K	-4.37

Block 3
Substance: PhoQ, residues 284 288 289 292 302 303 GNNTDL
Technique: Sort-seq
Measured: YFP reporter
Matrix: E. coli
Setting: PhoQ-PhoP variant library
Added: 10 µM Mg2+
Relative to: high Mg2+ state
Direction: higher = stronger signaling
target	fold induction
PhoP, residues 12 14 15 18 19 LHTVL (Escherichia coli, UniProt P23836)	8.14
PhoP, residues 12 14 15 18 19 TQAML (Escherichia coli, UniProt P23836)	3.13
PhoP, residues 12 14 15 18 19 NQCAL (Escherichia coli, UniProt P23836)	3.75

Block 4
Target: RNA binding protein fox-1 homolog 2, RRM domain, GST-SBP tag (RBFOX2, Homo sapiens, UniProt O43251-10, residues 100-194)
Technique: RNA Bind-n-Seq
Molecule type: RNA
Matrix: in vitro
Tested at: 365 nM
Setting: natural RNA segment, single round, ends assumed
Relative to: no-protein control
Direction: higher = stronger binding
Constant ends, left off below: GGGAGUUCUACAGUCCGACGAUC … UGGAAUUCUCGGGUGCCAA
Residues (chain): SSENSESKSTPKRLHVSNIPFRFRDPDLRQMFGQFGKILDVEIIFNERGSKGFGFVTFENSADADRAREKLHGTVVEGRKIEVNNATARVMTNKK
Strand	RBNS enrichment (R)
UGGUAUAUGUCAAUGACGUGGAGUGAAAUUUGCUAUUAGAUCCUGGAGGCAAAUGGGUUGUACAAGGUUUUAUGGCUCCGCGGGGAAUUUAAUUUCCUUUCUGGGCACCU	0.655
GAGUAAAGUUUCUUGAUUUCAACUAUAAUGAAUACUUUGCCUGUCUAGUUAGUACUGGCAGGACAUACCCUUAACCAAAACAUGGAAUUUGGCACCUUUUCCUCACUUGU	0.226
ACCAAACACCAGAGGCUGUUAAUUGUGGGUGGUGCUGUCAGUGUUCCUGACGGCUAUGUGUGUAUUUUAAUGGGGUUUGUCCUCAUCCACAAAUAAUUAUUUUUUUGUUA	1.01
ACAUCACAGUACCACCCCAGGGGUGGCAGUAGACAACAACCCAGAAAUUUAGACAGGGAUCUCUUACCUUUGGAAAAUAGGGGUUAGGCAUGAAGGUGGUUGUGAUUAAG	4
AUGCAGUUUUGUAGUGCUGGGGUUGGUUCAUGUCCUCUGGCACCCUGGCUUGUUGAAAGGUGGCUUUAGCUGUGUGCUGUGUACCUGCUUACGUGGCCUGCUGUCCUCUG	0.655
CAGCCACCCCUCCCGCUCGUGCACAGGCACGCAGAUGCGCUCACACGUACACACACACAAAUGCACGCCCACUUGCACAUGCUCACGCACAUGUUCACACAUGCACACUC	1.25
UGCACUCUAAAGGGGAACAUUUUAAGGAAGUACUAGCAGCUUUGACUCUUCUAUGCUCCUGUUGGUUUACAAGCCACCAAGAAUGUCAGUGUUGAGAAUACGGCCUGGUA	0.361
CUUUUGUUUUGGGGGCAGAUUACUUUCAAAAGCAAAUACAAUUCACUUGAAUUUGACAAACUGAAGCAGACAAGUGUUCUGGGUCCUCUGAUAAUUUGGGGUGUUUGGCU	0.357
AUGCAUGCUUAUGUGAGCAGCUGGACUCCCGCUCAGUACAGGCCUGGAACCCCAGGCCAAAUGUAUGCUCUGCUUCCUUGAGUGCUGUAAGAGUUCCCACUGGCCUUGCU	23.6
CCUUUCCCUCCCUGGGCCUCAGUUUCCCCAUCUCCCAAAUGGGAGGAGGAGCCGGAUUGGGUUAUUUCUUAGGGAUUCUCUUUGUGUGCCUUGCUGGCUUCCAGACCUGC	0.883
CAUCUCCCUAGCUUUCUCACGCUAACCCUGAAGUAUGAUCACUUCUGAACCUGCUCCUUUCUUAACUGCCAGGAUUGGAAGCAAGAGCAUCAAGCCCAUAGGAUGACUGC	0.415
AAUAUUUAUUUUGCCUCAUUUACUUUAUUUUCAGUUUUAGAUGAGGUGAAGGUUUUCUUUCAGUUAGGGUACUUGGCAAGGUCCAUUCUAGUGUAGCUGAAGAGGAAGCU	0.427
